Measurements collected from several papers.
Each line is one published result; not all experiments were run side by side.
NT5E: 5'-nucleotidase (NT5E, Homo sapiens, UniProt P21589)
UniProt P21589, sequence (whole entry, looked up): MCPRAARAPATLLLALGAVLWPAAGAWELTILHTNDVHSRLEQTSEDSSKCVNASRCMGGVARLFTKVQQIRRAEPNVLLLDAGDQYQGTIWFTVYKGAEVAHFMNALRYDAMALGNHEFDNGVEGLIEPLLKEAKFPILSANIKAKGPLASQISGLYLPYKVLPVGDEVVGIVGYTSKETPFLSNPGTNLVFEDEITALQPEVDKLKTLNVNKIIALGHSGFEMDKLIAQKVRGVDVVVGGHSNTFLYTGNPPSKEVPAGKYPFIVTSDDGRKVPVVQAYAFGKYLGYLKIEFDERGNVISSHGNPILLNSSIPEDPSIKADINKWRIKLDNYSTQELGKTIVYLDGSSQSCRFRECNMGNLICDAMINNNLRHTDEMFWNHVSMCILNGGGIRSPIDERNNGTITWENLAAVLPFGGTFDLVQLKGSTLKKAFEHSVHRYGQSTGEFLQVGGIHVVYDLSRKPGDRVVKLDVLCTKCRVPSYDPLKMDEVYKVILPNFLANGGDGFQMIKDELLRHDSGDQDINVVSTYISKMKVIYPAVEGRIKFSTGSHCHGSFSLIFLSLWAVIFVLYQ
rep papain-like protease: Replicase polyprotein 1ab, papain-like protease (rep, Porcine epidemic diarrhea virus, UniProt P0C6Y4)
PIP4K2C: Phosphatidylinositol 5-phosphate 4-kinase type-2 gamma (PIP4K2C, Homo sapiens, UniProt Q8TBX8)
UniProt Q8TBX8, sequence (whole entry, looked up): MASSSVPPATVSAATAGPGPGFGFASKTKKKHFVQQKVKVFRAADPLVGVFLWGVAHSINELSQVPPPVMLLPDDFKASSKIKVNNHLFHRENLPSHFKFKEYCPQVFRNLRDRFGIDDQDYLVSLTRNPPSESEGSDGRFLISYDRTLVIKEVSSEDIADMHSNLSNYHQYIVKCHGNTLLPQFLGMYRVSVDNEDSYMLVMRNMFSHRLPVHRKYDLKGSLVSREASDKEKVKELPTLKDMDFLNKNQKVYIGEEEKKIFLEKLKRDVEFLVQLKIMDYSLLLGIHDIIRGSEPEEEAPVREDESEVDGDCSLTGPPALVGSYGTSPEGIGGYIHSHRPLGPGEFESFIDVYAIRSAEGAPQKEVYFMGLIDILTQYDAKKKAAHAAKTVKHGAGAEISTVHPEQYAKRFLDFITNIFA
SLC6A2: Sodium-dependent noradrenaline transporter (SLC6A2, Homo sapiens, UniProt P23975)
UniProt P23975, sequence (whole entry, looked up): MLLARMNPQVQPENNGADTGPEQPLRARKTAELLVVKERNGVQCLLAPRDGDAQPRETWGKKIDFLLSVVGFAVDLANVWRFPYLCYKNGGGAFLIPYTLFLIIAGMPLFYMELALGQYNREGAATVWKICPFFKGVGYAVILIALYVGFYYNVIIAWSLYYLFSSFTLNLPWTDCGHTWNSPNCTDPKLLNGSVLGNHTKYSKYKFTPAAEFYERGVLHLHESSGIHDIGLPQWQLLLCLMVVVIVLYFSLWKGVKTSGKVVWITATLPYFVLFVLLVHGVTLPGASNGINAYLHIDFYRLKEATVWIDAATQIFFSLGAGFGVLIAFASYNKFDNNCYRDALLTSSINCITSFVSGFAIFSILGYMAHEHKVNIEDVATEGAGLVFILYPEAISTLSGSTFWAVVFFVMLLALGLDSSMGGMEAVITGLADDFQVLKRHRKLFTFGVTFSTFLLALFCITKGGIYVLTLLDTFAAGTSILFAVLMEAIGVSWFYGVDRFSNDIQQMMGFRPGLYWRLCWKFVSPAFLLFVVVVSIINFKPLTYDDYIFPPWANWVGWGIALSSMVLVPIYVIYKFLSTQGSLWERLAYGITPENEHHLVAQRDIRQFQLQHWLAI
AMY2: Pancreatic alpha-amylase (AMY2, Sus scrofa, UniProt P00690)
UniProt P00690, sequence (whole entry, looked up): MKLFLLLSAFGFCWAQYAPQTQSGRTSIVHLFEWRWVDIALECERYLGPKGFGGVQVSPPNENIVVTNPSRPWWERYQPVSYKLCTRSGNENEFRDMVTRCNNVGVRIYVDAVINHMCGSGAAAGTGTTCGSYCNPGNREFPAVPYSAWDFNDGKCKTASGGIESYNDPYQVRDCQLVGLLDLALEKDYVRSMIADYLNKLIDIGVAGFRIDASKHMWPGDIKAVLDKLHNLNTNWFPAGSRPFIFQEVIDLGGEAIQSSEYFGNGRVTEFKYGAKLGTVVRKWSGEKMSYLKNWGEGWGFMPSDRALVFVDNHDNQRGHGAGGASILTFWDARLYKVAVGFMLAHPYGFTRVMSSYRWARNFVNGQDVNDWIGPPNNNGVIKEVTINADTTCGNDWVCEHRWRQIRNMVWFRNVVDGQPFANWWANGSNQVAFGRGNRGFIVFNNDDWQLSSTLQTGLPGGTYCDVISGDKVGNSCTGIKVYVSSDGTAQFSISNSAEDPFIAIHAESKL
CDK7 with cyclin H: Cyclin-dependent kinase 7, with cyclin H (CDK7, Homo sapiens, UniProt P50613)
UniProt P50613, sequence (whole entry, looked up): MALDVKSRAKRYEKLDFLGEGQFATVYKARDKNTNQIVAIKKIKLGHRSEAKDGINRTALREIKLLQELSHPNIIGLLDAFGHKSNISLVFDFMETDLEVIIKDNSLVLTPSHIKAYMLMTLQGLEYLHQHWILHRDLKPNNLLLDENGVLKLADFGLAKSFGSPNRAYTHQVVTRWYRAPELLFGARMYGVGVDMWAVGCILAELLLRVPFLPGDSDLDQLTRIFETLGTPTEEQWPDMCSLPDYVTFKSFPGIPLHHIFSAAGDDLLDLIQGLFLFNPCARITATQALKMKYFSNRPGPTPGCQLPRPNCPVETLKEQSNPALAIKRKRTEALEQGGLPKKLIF
rep main protease: Replicase polyprotein 1ab, main protease (rep, Porcine epidemic diarrhea virus, UniProt P0C6Y4)
UniProt O95835, sequence (whole entry, looked up): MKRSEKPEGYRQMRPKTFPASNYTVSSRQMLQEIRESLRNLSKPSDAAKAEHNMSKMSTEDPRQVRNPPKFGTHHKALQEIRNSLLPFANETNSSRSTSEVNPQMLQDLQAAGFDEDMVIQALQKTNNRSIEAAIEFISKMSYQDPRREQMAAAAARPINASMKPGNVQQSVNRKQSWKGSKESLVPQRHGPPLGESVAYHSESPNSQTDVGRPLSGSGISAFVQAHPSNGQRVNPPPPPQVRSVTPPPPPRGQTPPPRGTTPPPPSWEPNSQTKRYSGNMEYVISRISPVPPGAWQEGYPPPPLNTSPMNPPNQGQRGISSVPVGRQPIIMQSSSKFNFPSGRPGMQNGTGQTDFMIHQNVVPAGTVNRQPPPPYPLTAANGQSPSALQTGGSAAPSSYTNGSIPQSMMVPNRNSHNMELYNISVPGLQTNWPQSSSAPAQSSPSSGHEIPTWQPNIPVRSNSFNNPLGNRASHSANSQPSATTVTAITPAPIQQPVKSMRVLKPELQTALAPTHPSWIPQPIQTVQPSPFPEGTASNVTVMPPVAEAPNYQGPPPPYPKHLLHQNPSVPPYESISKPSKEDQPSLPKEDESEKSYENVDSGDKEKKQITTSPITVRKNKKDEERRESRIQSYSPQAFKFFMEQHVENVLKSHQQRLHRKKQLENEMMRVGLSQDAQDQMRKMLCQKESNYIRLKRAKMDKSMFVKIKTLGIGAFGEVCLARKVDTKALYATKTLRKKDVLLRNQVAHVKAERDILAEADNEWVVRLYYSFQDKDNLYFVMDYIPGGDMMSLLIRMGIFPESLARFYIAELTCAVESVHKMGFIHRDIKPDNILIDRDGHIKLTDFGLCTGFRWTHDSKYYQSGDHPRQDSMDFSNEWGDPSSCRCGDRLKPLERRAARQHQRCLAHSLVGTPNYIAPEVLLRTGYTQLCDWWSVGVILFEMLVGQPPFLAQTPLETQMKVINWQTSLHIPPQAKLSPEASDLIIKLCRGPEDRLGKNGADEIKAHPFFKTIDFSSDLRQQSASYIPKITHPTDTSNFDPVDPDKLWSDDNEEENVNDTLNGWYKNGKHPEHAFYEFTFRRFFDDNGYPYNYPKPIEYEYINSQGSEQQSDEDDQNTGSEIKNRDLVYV
UniProt P27338, sequence (whole entry, looked up): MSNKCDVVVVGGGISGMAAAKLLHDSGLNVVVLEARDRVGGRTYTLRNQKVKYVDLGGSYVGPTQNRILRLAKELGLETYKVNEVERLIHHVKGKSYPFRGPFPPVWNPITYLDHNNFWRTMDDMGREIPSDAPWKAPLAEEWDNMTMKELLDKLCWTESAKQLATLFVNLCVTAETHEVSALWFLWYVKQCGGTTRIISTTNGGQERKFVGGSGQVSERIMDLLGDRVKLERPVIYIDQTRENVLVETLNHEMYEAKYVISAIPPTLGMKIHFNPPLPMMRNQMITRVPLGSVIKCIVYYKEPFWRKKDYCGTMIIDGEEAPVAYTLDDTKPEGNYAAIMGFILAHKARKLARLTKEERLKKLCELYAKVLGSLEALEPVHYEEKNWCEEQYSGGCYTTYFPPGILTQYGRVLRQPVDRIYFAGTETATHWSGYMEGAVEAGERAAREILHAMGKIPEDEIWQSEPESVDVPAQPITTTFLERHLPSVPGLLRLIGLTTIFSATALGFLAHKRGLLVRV
UniProt Q92769, sequence (whole entry, looked up): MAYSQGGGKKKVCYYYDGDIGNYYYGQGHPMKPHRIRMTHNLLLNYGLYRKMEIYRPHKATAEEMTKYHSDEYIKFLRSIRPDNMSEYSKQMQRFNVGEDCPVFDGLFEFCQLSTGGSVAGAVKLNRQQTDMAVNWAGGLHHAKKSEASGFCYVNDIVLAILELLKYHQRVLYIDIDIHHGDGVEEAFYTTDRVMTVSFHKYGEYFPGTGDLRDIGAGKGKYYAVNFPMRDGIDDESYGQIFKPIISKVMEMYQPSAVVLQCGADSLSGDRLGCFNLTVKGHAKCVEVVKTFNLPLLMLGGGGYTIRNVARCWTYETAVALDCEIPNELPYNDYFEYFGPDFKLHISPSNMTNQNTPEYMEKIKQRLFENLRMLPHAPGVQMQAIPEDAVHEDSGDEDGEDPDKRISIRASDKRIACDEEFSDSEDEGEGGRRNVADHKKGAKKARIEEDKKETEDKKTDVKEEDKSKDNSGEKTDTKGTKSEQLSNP
UniProt P41145, sequence (whole entry, looked up): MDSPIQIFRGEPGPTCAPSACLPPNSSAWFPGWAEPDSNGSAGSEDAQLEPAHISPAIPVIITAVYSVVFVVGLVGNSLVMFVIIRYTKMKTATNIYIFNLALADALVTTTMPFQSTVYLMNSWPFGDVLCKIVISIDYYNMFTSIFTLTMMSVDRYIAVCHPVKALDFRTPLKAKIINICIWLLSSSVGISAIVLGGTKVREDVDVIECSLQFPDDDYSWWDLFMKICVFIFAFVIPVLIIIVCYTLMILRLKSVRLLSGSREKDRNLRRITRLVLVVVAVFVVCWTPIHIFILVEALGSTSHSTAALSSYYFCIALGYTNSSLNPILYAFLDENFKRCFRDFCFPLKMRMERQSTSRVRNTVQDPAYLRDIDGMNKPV

Compound | target or system | assay | setting | endpoint | result
Cc1cc(F)cc2c(CCC(=O)N[C@@H]3C(=O)NC[C@H]3O)c(-c3ccc(F)cc3)[nH]c12 | OPRK1 (Homo sapiens, UniProt P41145) | cell-free assay | 10 µM | inhibition | 9%
Cc1cc(C(F)(F)F)c2c(N)c(C(=O)Nc3ccon3)sc2n1 | NT5E | enzyme activity, inhibitor | 10 µM | inhibition | -18%
O=C(NCc1cc(O)c(O)c(Br)c1)c1cccc(Br)c1 | rep papain-like protease | enzyme activity, inhibitor, FRET | 10 µM | inhibition | 57.2%
COC(=O)/C(=C1/OC(=O)C(c2ccccc2)=C1O)c1ccccc1 | SLC22A11 (Homo sapiens, UniProt Q9NSA0) | transporter uptake, inhibitor | 25 µM | inhibition | 84.7%
CCCCC(=O)Nc1ccc(-c2ccc3ncn(CCCF)c(=O)c3c2)cn1 | PIP4K2C | binding, competition with immobilised ligand | 0.5 µM | inhibition | 99.2%
CNC(=O)[C@@]12C[C@@H]1[C@@H](n1cnc3c(NCc4cccc(Cl)c4)nc(C#Cc4ccc(Cl)s4)nc31)[C@H](O)[C@@H]2O | SLC6A2 | ligand displacement, radioligand | 10 µM | inhibition | 85%
O=c1cc(-c2ccc(O)cc2)oc2cc(O)cc(O)c12 | AMY2 | enzyme activity, inhibitor | 50 µM, 30 min | inhibition | 88%
COc1cc(CNC(=O)c2ccncc2Cl)cc(Br)c1OC | rep papain-like protease | enzyme activity, inhibitor, FRET | 10 µM | inhibition | 3.07%
Cc1ccc(N(O)N=Nc2ccc(S(=O)(=O)Nc3onc(C)c3C)cc2)cc1 | AMY2 | enzyme activity, inhibitor | 20 µg/mL | inhibition | 10.5%
CC(=NNC(=O)c1cccnc1)c1ccc(Nc2nnc(-c3ccc(Cl)cc3)c3ccccc23)cc1 | HepG2 | cell growth or viability, MTT | 1.25 µM, 24 h | viability | 11.9%
Cc1cc(NS(=O)(=O)c2ccc(N=NN(C)O)cc2)no1 | AMY2 | enzyme activity, inhibitor | 120 µg/mL | inhibition | 21.1%
CC[C@H](C)[C@H](NC(=O)[C@H](CCC(N)=O)NC(=O)[C@@H](NC(=O)[C@H](CCSC)NC(=O)[C@H](CCCCN)NC(=O)[C@H](CO)NC(=O)[C@@H](NC(=O)[C@H](CCSC)NC(=O)[C@H](CC(C)C)NC(=O)[C@H](CC(N)=O)NC(=O)[C@@H](NC(=O)[C@@H](NC(=O)[C@H](CO)NC(=O)[C@H](CC(C)C)NC(=O)[C@H](C)NC(=O)[C@H](CCCNC(=N)N)NC(=O)[C@H](CCC(=O)O)NC(=O)[C@H](Cc1ccc(O)cc1)NC(=O)[C@H](Cc1ccccc1)NC(=O)[C@H](C)NC(=O)[C@H](CC(N)=O)NC(=O)[C@@H](N)CCCCN)[C@@H](C)CC)[C@@H](C)CC)[C@@H](C)O)C(C)C)C(=O)N[C@@H](CC(N)=O)C(=O)N[C@H](C(=O)O)C(C)C | MAPK3 (Homo sapiens, UniProt P27361) | enzyme activity, inhibitor, radiometric | 250 µM | inhibition | 35%
Cc1cc([C@@H](C)Nc2ccccc2C(=O)O)c2nc(N3CCC(F)(F)CC3)c(C#N)c(=O)n2c1 | CHEK1 (Homo sapiens, UniProt O14757) | binding, competition with immobilised ligand | 10 µM | remaining binding | 97%
C=C1CC[C@@H]2[C@](C)(CO)[C@H](O)CC[C@@]2(C)[C@@H]1/C=C/C1=CCOC1=O | CDK7 with cyclin H | enzyme activity, inhibitor, ADP detection | 10 µM | inhibition | 11.2%
COc1cc(CNC(=O)c2ccc(Br)cc2)cc(Br)c1OC | rep papain-like protease | enzyme activity, inhibitor, FRET | 10 µM | inhibition | 80.2%
CCCCC(=O)Nc1ncc(-c2ccc3ncn(CCC)c(=O)c3c2)cn1 | PIP4K2C | binding, competition with immobilised ligand | 0.5 µM | inhibition | 94.9%
Cc1cc(C)c2c(N)c(C(=O)Nc3cccnc3)sc2n1 | NT5E | enzyme activity, inhibitor | 10 µM | inhibition | -23%
CCCN(O)N=Nc1ccc(S(=O)(=O)Nc2nccs2)cc1 | AMY2 | enzyme activity, inhibitor | 60 µg/mL | inhibition | 21.1%
O=C(NCc1cc(O)c(O)c(Br)c1)c1ccncc1Cl | rep main protease | enzyme activity, inhibitor, FRET | 10 µM | inhibition | 102%

Compound | target or system | assay | setting | endpoint | result
Cc1cccc(N(O)N=Nc2ccc(S(=O)(=O)Nc3nccs3)cc2)c1 | AMY2 | enzyme activity, inhibitor | 300 µg/mL | inhibition | 63.2%
N#Cc1cccc(C(=O)NCc2cc(O)c(O)c(Br)c2)c1 | rep papain-like protease | enzyme activity, inhibitor, FRET | 10 µM | inhibition | 72%
O=C(NO)c1cc(F)cc(OS(=O)(=O)Oc2ccccc2)c1 | HDAC2 (Homo sapiens, UniProt Q92769) | enzyme activity, inhibitor, fluorescence | 10 µM | inhibition | 6%
CCC(C(=O)NCc1cc(O)c(O)c(Br)c1)c1ccccc1 (stereo not shown) | rep main protease | enzyme activity, inhibitor, FRET | 10 µM | inhibition | 87.5%
CCOC(=O)[C@@]12C[C@@H]1[C@@H](n1cnc3c(NC4CC4)nc(C#Cc4ccc(Cl)s4)nc31)[C@H](O)[C@@H]2O | SLC6A2 | ligand displacement, radioligand | 10 µM | inhibition | 63%
COc1cc(-c2cncc3c2CN(C)Cc2cc(N4CCNCC4)ccc2-3)cc(OC)c1OC | LATS1 (Homo sapiens, UniProt O95835) | enzyme activity, inhibitor | 1 µM | remaining activity | 118%
C[C@H]1O[C@H](O[C@H]2[C@H](O)[C@@H](O)[C@@H](O[C@H]3[C@H](O)[C@@H](O)C(O)O[C@@H]3CO)O[C@@H]2CO)[C@H](O)[C@@H](O)[C@@H]1N[C@H]1C=C(CO)[C@@H](O)[C@H](O)[C@H]1O (stereo partly shown) | Pancreatic alpha-amylase (Homo sapiens, UniProt P04746) | enzyme activity, inhibitor | 50 µg/mL | inhibition | 88.7%
CN1CC(Oc2cnc(C#N)cc2-c2ccn3nc(NC(=O)C4CC4)cc3c2)C1 | LTK (Homo sapiens, UniProt P29376) | enzyme activity, inhibitor | 1 µM | inhibition | -3%
O=C(NCc1cc(O)c(O)c(Br)c1)c1ccno1 | rep papain-like protease | enzyme activity, inhibitor, FRET | 10 µM | inhibition | 97.8%
COc1cc(NC(=O)c2ccc3c(c2)C(=O)NC3=O)ccc1Cl | MAOB (Homo sapiens, UniProt P27338) | enzyme activity, inhibitor | 1 µM | inhibition | 54.4%
NC/C(=C\F)COc1cccc(Cn2c(=S)[nH]c(=O)c3[nH]cnc32)c1 | AOC1 (Homo sapiens, UniProt P19801) | enzyme activity, inhibitor | 37 nM | inhibition | 3.22%
CCOC(=O)c1ccc(NC(=O)CSc2nc(-c3ccccc3)cc(C(F)(F)F)c2C#N)cc1 | NT5E | enzyme activity, inhibitor | 10 µM | inhibition | 10%
O=c1cc(-c2ccc3c(c2)OCO3)oc2c1ccc1occc12 | CDK7 with cyclin H | enzyme activity, inhibitor, ADP detection | 10 µM | inhibition | 27%
C=CC(=O)N1CCC(COCC(=O)N2CCN(c3nc(-c4cnc(N)nc4C(F)F)nc(N4CCOC[C@@H]4C)n3)CC2)CC1 | FGFR4 (Homo sapiens, UniProt P22455) | binding, competition with immobilised ligand | 1 µM | remaining binding | 97%
CCN(O)N=Nc1ccc(S(=O)(=O)Nc2onc(C)c2C)cc1 | AMY2 | enzyme activity, inhibitor | 120 µg/mL | inhibition | 36.8%
COC(=O)c1ccc(NC(=O)c2sc3nc(C)cc(-c4ccccc4)c3c2N)cc1 | NT5E | enzyme activity, inhibitor | 10 µM | inhibition | -20%
Cc1ccc(N(O)N=Nc2ccc(S(=O)(=O)Nc3cc(C)on3)cc2)cc1 | AMY2 | enzyme activity, inhibitor | 180 µg/mL | inhibition | 57.9%
CNc1ncc2c(/C=C/C(=O)N3CCC(OC)CC3)nn(Cc3cccc(C(F)(F)F)c3)c2n1 | PAK4 (Homo sapiens, UniProt O96013) | enzyme activity, inhibitor, radiometric | 1 µM | remaining activity | 92%

Repeated from above:
Compound | target or system | assay | setting | endpoint | result
CNC(=O)[C@@]12C[C@@H]1[C@@H](n1cnc3c(NCc4cccc(Cl)c4)nc(C#Cc4ccc(Cl)s4)nc31)[C@H](O)[C@@H]2O | SLC6A2 | ligand displacement, radioligand | 10 µM | inhibition | 85%
O=c1cc(-c2ccc(O)cc2)oc2cc(O)cc(O)c12 | AMY2 | enzyme activity, inhibitor | 50 µM, 30 min | inhibition | 88%
COc1cc(CNC(=O)c2ccncc2Cl)cc(Br)c1OC | rep papain-like protease | enzyme activity, inhibitor, FRET | 10 µM | inhibition | 3.07%
Cc1ccc(N(O)N=Nc2ccc(S(=O)(=O)Nc3onc(C)c3C)cc2)cc1 | AMY2 | enzyme activity, inhibitor | 20 µg/mL | inhibition | 10.5%
CC(=NNC(=O)c1cccnc1)c1ccc(Nc2nnc(-c3ccc(Cl)cc3)c3ccccc23)cc1 | HepG2 | cell growth or viability, MTT | 1.25 µM, 24 h | viability | 11.9%
